{"data": "Assay results from different studies", "note": "Each line is one published result; not all experiments were run side by side. Numbers after ± are the reported error."}
{"SMILES": "Cc1cc(O)cc(O)c1C(=O)c1c2c3c(c(O)cc(C)c3oc1=O)C(=O)c1c(O)cc(O)cc1-2", "system": "Bel-7402 xenograft, mouse", "conditions": "intraperitoneal, 28 mg/kg daily, day 21", "measurement": "tumour volume", "result": "803 ± 168 mm³"}
{"SMILES": "CC(=O)[O-].O.[Cu+2].[O-]c1ccc(Br)cc1C=NCCN1CCOCC1", "test": "superoxide scavenging", "conditions": "240 µM", "measurement": "inhibition", "result": "71.6%"}
{"SMILES": "COc1ccc2c(c1)c(CC(=O)OCC(=O)c1ccccc1)c(C)n2C(=O)c1ccc(Cl)cc1", "test": "hot plate test", "system": "BALB/c mice", "conditions": "100 mg/kg, 0 min", "measurement": "latency of nociceptive response", "result": "10.8 ± 0.58 s"}
{"SMILES": "CCOC(=O)c1cc2c(N)c(C(=O)OC)sc2nc1C", "system": "urea transporter knockout mice", "conditions": "subcutaneous, 100 mg/kg, 12 h", "measurement": "urine volume", "result": "no effect"}
{"SMILES": "CCCC[C@H](NC(=O)[C@@H](NC(=O)[C@H](CC(=O)O)NC(=O)[C@H](CCC(N)=O)NC(=O)[C@H](CC(C)C)NC(=O)[C@H](CC(C)C)NC(=O)[C@H](CCCN)NC(=O)[C@H](CCCNC(=N)N)NC(=O)[C@H](C)NC(=O)[C@H](CO)NC(=O)[C@H](CC(C)C)NC(=O)[C@H](CCC(N)=O)NC(=O)[C@H](CC)NC(=O)[C@H](CC(C)C)NC(=O)[C@@H](NC(=O)[C@H](CCCN)NC(=O)[C@H](CCCNC(=N)N)NC(=O)[C@H](Cc1ccc(O)cc1)NC(=O)[C@H](CO)NC(=O)[C@H](CCC(N)=O)NC(=O)[C@@H](NC(=O)[C@H](Cc1ccccc1)NC(=O)[C@@H](NC(=O)[C@H](C)NC(=O)[C@H](CC(=O)O)NC(=O)[C@@H](C)NC(=O)[C@H](Cc1ccc(O)cc1)NC)[C@@H](C)CC)[C@@H](C)O)C(C)C)[C@@H](C)CC)C(=O)N[C@@H](CC(=O)O)C(=O)N[C@@H](CCCNC(=N)N)C(=O)NC", "test": "GH release, ELISA", "system": "male Sprague-Dawley rat, anaesthetised, serum", "conditions": "subcutaneous, 3 µg/kg, 15 min", "measurement": "serum GH level", "result": "609 ± 35.3 ng/mL"}
{"SMILES": "CC(C)[C@H](CO)Nc1nc(Nc2ccc(C(=O)NCCNS(=O)(=O)c3cccc4c(N(C)C)cccc34)c(Cl)c2)c2ncn(C(C)C)c2n1", "system": "ND2-SmoA1 mice, medulloblastoma tumour", "conditions": "dose not given", "measurement": "nuclear cyclin D1-positive cells", "result": "13.8 ± 4%"}
{"SMILES": "O=C(OC(C(F)(F)F)C(F)(F)F)N1CCC(CNS(=O)(=O)c2ccc(Cl)cc2)CC1", "system": "OF1 mouse PBQ writhing", "conditions": "oral, 1 and 3 mg/kg, 60 min before test", "measurement": "writhing response", "result": "decreased"}
{"SMILES": "C=C(c1ccc(C(=O)O)c(F)c1)c1cc2c(cc1C)C(C)(C)C=CC2(C)C", "test": "RNA sequencing, refers to: Cyp26b1 mRNA", "system": "rat, brain", "conditions": "dose not given, 24 h, single dose", "scale": "reference: vehicle", "measurement": "log2 fold change", "result": -0.09}
{"SMILES": "O=C1CCN(Cc2ccccc2)CC1C(C[N+](=O)[O-])c1ccccc1 (stereo not drawn)", "system": "mouse acetic acid writhing", "conditions": "25 mg/kg, added: haloperidol 1 mg/kg pretreatment", "measurement": "number of writhes", "result": "56 ± 1.05"}
{"SMILES": "C[C@H](NC(=O)COC(=O)[C@H](C)NC(=O)CO)C(=O)O", "system": "water", "conditions": "pH 7, 65 °C", "measurement": "depolymerization rate constant", "result": "62.3 h⁻¹"}
{"SMILES": "COC(=O)C1C(c2nc3cc(OC)ccc3[nH]2)=Cc2cc3c(cc2C1c1cc(OC)c(OC)c(OC)c1)OCO3 (stereo not drawn)", "test": "Alamar Blue", "system": "splenocytes, mouse", "scale": "reference: CC50 splenocytes over EC50 amastigotes", "measurement": "selectivity index", "result": "> 13.7"}
{"SMILES": "O=c1c(OCc2ccccc2)c(-c2cccc([N+](=O)[O-])c2)oc2ccccc12", "system": "diabetic rat", "conditions": "5 mg/kg, 28 days, p-nitrophenyl β-glucoside induced", "measurement": "serum HDL cholesterol", "result": "43.7 ± 1.98 mg/dL"}
{"SMILES": "Cc1ccc(C(=O)Nc2ccc(CP(=O)(O)O)cc2CP(=O)(O)O)cc1NC(=O)c1cccc(NC(=O)Nc2cccc(C(=O)Nc3cc(C(=O)Nc4ccc(CP(=O)(O)O)cc4CP(=O)(O)O)ccc3C)c2)c1", "system": "human plasma", "conditions": "235 µM", "measurement": "APTT", "result": "42.6 ± 5.8 s"}
{"SMILES": "Cc1ncc([N+](=O)[O-])n1CCOCc1nnc(SCC(=O)c2ccc(O)cc2)o1", "conditions": "50 µg/mL, 45 min", "measurement": "DPPH scavenging", "result": "55.1 ± 0.42%"}
{"SMILES": "CCCC[C@H](NC(=O)[C@@H](NC(=O)[C@H](CC(=O)O)NC(=O)[C@H](CCC(N)=O)NC(=O)[C@H](CC(C)C)NC(=O)[C@H](CC(C)C)NC(=O)[C@H](CCCN)NC(=O)[C@H](CCCNC(=N)N)NC(=O)[C@H](C)NC(=O)[C@H](CO)NC(=O)[C@H](CC(C)C)NC(=O)[C@H](CCC(N)=O)NC(=O)[C@H](CC)NC(=O)[C@H](CC(C)C)NC(=O)[C@@H](NC(=O)[C@H](CCCN)NC(=O)[C@H](CCCNC(=N)N)NC(=O)[C@H](Cc1ccc(O)cc1)NC(=O)[C@H](CO)NC(=O)[C@H](CCC(N)=O)NC(=O)[C@@H](NC(=O)[C@H](Cc1ccccc1)NC(=O)[C@@H](NC(=O)[C@H](C)NC(=O)[C@H](CC(=O)O)NC(=O)[C@H](C)NC(=O)[C@H](Cc1ccc(O)cc1)NC)[C@@H](C)CC)[C@@H](C)O)C(C)C)[C@@H](C)CC)C(=O)N[C@@H](CC(=O)O)C(=O)NCCCCNC(=N)N", "test": "GH release, ELISA", "system": "male Sprague-Dawley rat, anaesthetised, serum", "conditions": "subcutaneous, 3 µg/kg, 30 min", "measurement": "serum GH level", "result": "152 ± 21.8 ng/mL"}
{"SMILES": "CCCCCCCOC(=O)Cc1c(C)n(C(=O)c2ccc(Cl)cc2)c2ccc(OC)cc12", "test": "hot plate test", "system": "BALB/c mice", "conditions": "75 mg/kg, 90 min", "measurement": "latency of nociceptive response", "result": "16.6 ± 1.13 s"}
{"SMILES": "Cc1ccc(N(CCc2nnc(S)o2)S(=O)(=O)c2ccc(C)cc2)cc1", "test": "radiant heat tail flick", "system": "rat", "conditions": "100 mg/kg", "measurement": "analgesic protection", "result": "76.3%"}
{"SMILES": "O=C(CCN1CCC(O)CC1)Nc1nc(-c2ccccc2)cs1", "conditions": "0.2 M, 1 h", "measurement": "DPPH radical scavenging", "result": "36%"}
{"SMILES": "O=c1c(OCc2ccccc2)c(-c2ccc([N+](=O)[O-])cc2)oc2ccccc12", "system": "diabetic rat", "conditions": "7.5 mg/kg, 28 days, p-nitrophenyl β-glucoside induced", "measurement": "serum total cholesterol", "result": "154 ± 4.85 mg/dL"}
{"SMILES": "CCCC[C@H](NC(=O)[C@@H](NC(=O)[C@H](CC(=O)O)NC(=O)[C@H](CCC(N)=O)NC(=O)[C@H](CC(C)C)NC(=O)[C@H](CC(C)C)NC(=O)[C@H](CCCN)NC(=O)[C@H](CCCNC(=N)N)NC(=O)[C@H](C)NC(=O)[C@H](CO)NC(=O)[C@H](CC(C)C)NC(=O)[C@H](CCC(N)=O)NC(=O)[C@H](CC)NC(=O)[C@H](CC(C)C)NC(=O)[C@@H](NC(=O)[C@H](CCCN)NC(=O)[C@H](CCCNC(=N)N)NC(=O)[C@H](Cc1ccc(O)cc1)NC(=O)[C@H](CO)NC(=O)[C@@H](NC(=O)[C@@H](NC(=O)[C@H](Cc1ccccc1)NC(=O)[C@@H](NC(=O)[C@H](C)NC(=O)[C@H](CC(=O)O)NC(=O)[C@@H](C)NC(=O)[C@H](Cc1ccc(O)cc1)NC)[C@@H](C)CC)[C@@H](C)O)[C@@H](C)O)C(C)C)[C@@H](C)CC)C(=O)N[C@@H](CC(=O)O)C(=O)N[C@@H](CCCNC(=N)N)C(=O)NC", "test": "GH release, ELISA", "system": "male Sprague-Dawley rat, anaesthetised, serum", "conditions": "subcutaneous, 3 µg/kg, 15 min", "measurement": "serum GH level", "result": "334 ± 54 ng/mL"}
{"SMILES": "COc1ccc(Nc2c(C#N)cnc3ccc(Cl)cc23)cc1", "test": "heme peroxidation", "system": "acetate buffer", "conditions": "100 µM, 1 h, pH 5.2, added: H2O2", "measurement": "maximal protection", "result": "91.8%"}
{"note": "Excerpt of the above:"}
{"SMILES": "CCCC[C@H](NC(=O)[C@@H](NC(=O)[C@H](CC(=O)O)NC(=O)[C@H](CCC(N)=O)NC(=O)[C@H](CC(C)C)NC(=O)[C@H](CC(C)C)NC(=O)[C@H](CCCN)NC(=O)[C@H](CCCNC(=N)N)NC(=O)[C@H](C)NC(=O)[C@H](CO)NC(=O)[C@H](CC(C)C)NC(=O)[C@H](CCC(N)=O)NC(=O)[C@H](CC)NC(=O)[C@H](CC(C)C)NC(=O)[C@@H](NC(=O)[C@H](CCCN)NC(=O)[C@H](CCCNC(=N)N)NC(=O)[C@H](Cc1ccc(O)cc1)NC(=O)[C@H](CO)NC(=O)[C@H](CCC(N)=O)NC(=O)[C@@H](NC(=O)[C@H](Cc1ccccc1)NC(=O)[C@@H](NC(=O)[C@H](C)NC(=O)[C@H](CC(=O)O)NC(=O)[C@H](C)NC(=O)[C@H](Cc1ccc(O)cc1)NC)[C@@H](C)CC)[C@@H](C)O)C(C)C)[C@@H](C)CC)C(=O)N[C@@H](CC(=O)O)C(=O)NCCCCNC(=N)N", "test": "GH release, ELISA", "system": "male Sprague-Dawley rat, anaesthetised, serum", "conditions": "subcutaneous, 3 µg/kg, 30 min", "measurement": "serum GH level", "result": "152 ± 21.8 ng/mL"}
{"SMILES": "CC(C)[C@H](CO)Nc1nc(Nc2ccc(C(=O)NCCNS(=O)(=O)c3cccc4c(N(C)C)cccc34)c(Cl)c2)c2ncn(C(C)C)c2n1", "system": "ND2-SmoA1 mice, medulloblastoma tumour", "conditions": "dose not given", "measurement": "nuclear cyclin D1-positive cells", "result": "13.8 ± 4%"}
{"SMILES": "O=C(OC(C(F)(F)F)C(F)(F)F)N1CCC(CNS(=O)(=O)c2ccc(Cl)cc2)CC1", "system": "OF1 mouse PBQ writhing", "conditions": "oral, 1 and 3 mg/kg, 60 min before test", "measurement": "writhing response", "result": "decreased"}
